Results collected from several papers.
Lines come from different studies, so protocols differ. Values joined by “and” are separate records of one study, mostly repeats; a detail may differ. Numbers after ± are the reported error.

SMILES	test	test system	conditions	scale	measurement	value
CCN1CCN(Cc2ccc(NC(=O)c3ccc(C)c(NC(=O)c4cncc(-c5cccs5)c4)c3)cc2C(F)(F)F)CC1		C57BL/6 mice, epithelial lining fluid	intraperitoneal, 10 mg/kg		half-life	2.02 h
Cc1ccc([C@@H]2O[C@H](CO)[C@@H](O)[C@H](O)[C@H]2O)cc1Cc1ccc(-c2ccc(F)cc2)s1		Japanese type 2 diabetes patients	400 mg, day 16, 24 h urine collection	baseline: baseline	urinary magnesium excretion change	8.12 mg
COc1cccc(OC)c1-c1cc(C(=O)NC2(C(=O)O)C3CC4CC(C3)CC2C4)nn1-c1ccc(C(=O)N(C)CCCN(C)CCCN(C)C(=O)CN2CCN(CC(=O)[O-])CCN(CC(=O)[O-])CCN(CC(=O)[O-])CC2)cc1C(C)C.[177Lu+3] (stereo not shown)		mouse, HT-29 xenograft	24 h post injection, biodistribution	baseline: tumour over bone uptake	tumour-to-bone ratio	138
COCCOc1cnc2ccn([C@H](C)c3nnc4c(F)cc(-c5cnn(C)c5)cn34)c(=O)c2c1		patients, plasma	oral, 100 mg once daily, day 1		Cmax	1590 ng/mL
CCc1cc(C(=O)NC)c2nccc(N3CCc4c(cc(Cn5ccnc5)cc4-c4cn(C)nc4C(F)(F)F)C3=O)c2c1	measured: CK	Sprague Dawley rat	oral, 50 mg/kg once daily, 7 days	baseline: vehicle	change in clinical chemistry or haematology parameter	-18.8%
CNC(=O)c1ccc(-c2cnc3ncc(Cc4ccc5ncccc5c4)n3n2)cc1F		Japanese patients	oral, 400 mg, any grade		Lymphocyte count decreased dose reduction/interruption	1%
C[C@H]1OC[C@H](C2CCCCC2)N[C@@H]1c1cccc(Cl)c1	shake-flask, LC-HRMS	aqueous buffer	16 h, pH 6.8		solubility	< 4 µM
Cc1c(C(=O)O)ccc2c3n(nc12)[C@@H]1[C@H](C3)N(CC2CC2)[C@@]2(C(=O)Nc3cc(Cl)ccc32)[C@H]1c1cccc(Cl)c1F		female BALB/c nude mice, SJSA-1 xenograft, plasma	oral, 1 mg/kg twice daily		half-life	7.7 h and 14.2 h and 13.6 h and 5.1 h and 5.6 h
N#Cc1ccc2c(c1)[C@H]1CCCN(C(=O)c3ccc4[nH]cnc4c3)[C@H]1C2		human, female	360 mg, day 7		androstenedione level	5.4 nmol/L
CCn1c(=O)c(-c2cc(NC(=O)Nc3ccccc3)c(F)cc2Br)cc2cnc(NC)cc21		human plasma	4000 ng/mL, 24 h, 24 °C, high QC		short-term stability accuracy	9.79%
CCO[C@H]1CCN(Cc2c(OC)cc(C)c3[nH]ccc23)[C@H](c2ccc(C(=O)O)cc2)C1		PNH patients, active haemolysis	oral, 200 mg, 8 weeks, treatment		incidence of haematuria	0%
N#Cc1cc([C@H]2COC[C@@H](c3cc(Cl)cc(Cl)c3)N2)ccc1F	shake-flask, LC-HRMS	aqueous buffer	16 h, pH 6.8		solubility	< 4 µM
COc1ccc([C@@H](O)c2cc(-c3ncnc4cc(N5CCOCC5)ccc34)c(F)cc2Cl)nn1		locally advanced rectal cancer	all dose levels overall, with: capecitabine and radiotherapy		TEAE, gastrointestinal disorders	100%
CC1(C)OC[C@H](c2ccc3ccccc3c2)N[C@@H]1c1ccccc1	shake-flask, LC-HRMS	aqueous buffer	16 h, pH 6.8		solubility	< 4 µM
O=C(COc1ccc(Cl)cc1)NC12CC(c3nnc([C@H]4C[C@@H](OC(F)(F)F)C4)o3)(C1)C2	measured: abnormal haematology test	healthy humans, both sexes	oral, 15 mg, single ascending dose	baseline: subjects	treatment-emergent adverse events	16.7%
CC(=O)N(C)[C@H]1CCN(C(=O)c2cnc3c(c2)C[C@](C)(c2ccc(F)cc2)N3)C1		healthy male subjects, multiple rising dose	oral, 15 mg once daily		drug-related adverse events	12.5%
CC=CC1CCC(C2CCC(CCC)CC2)CC1 (stereo not shown)		rat, placenta	1000 ng/mL in perfusate, middle dose, mixture of 21 LCMs		placental accumulation	19.2 ± 23.5 ng/g
COC(=O)Nc1nc2cc(C(=O)c3ccc(F)cc3)ccc2[nH]1		buffer	24 h, pH 1.2, room temperature		equilibrium solubility	17 ± 2.6 µg/mL
NC[C@H](NC(=O)c1ccc(C#CC#Cc2ccccc2)cc1)C(=O)NO		aqueous buffer	pH 7.4		solubility	< 2.48 µg/mL
CCNCCCNC/C=C\CNCCCNCC	LC-MS/MS	human cancer patients, plasma	intravenous infusion 60 min, 150 mg, median, cycle 1		elimination rate constant	3.55 h⁻¹

SMILES	test	test system	conditions	scale	measurement	value
C[Si](C)(C)O[Si](C)(C)O[Si](C)(C)C			1.9 to 6.0 µg/L, 35.0 °C		log KOA	3.51
Cc1cc(C(=O)NC(C)(C)COc2cccc3c2C(N)=NS(=O)(=O)N3)cc(C)n1		Sprague-Dawley rat, plasma	oral, 100 mg/kg, vehicle 1% methylcellulose	baseline: female over male	AUC(last) ratio	0.68
COc1cc2nccc(Oc3ccc(NC(=O)c4cc5c(n(-c6ccccc6)c4=O)CCCC5=O)nc3)c2cc1OC		patients with relapsed/refractory AML	oral, 3 mg once daily		drug-related TEAEs leading to interruption	0%
CCO[C@H]1CCN(Cc2c(OC)cc(C)c3[nH]ccc23)[C@H](c2ccc(C(=O)O)cc2)C1		human mild hepatic impairment, plasma	oral, 200 mg single dose, geometric mean		total Cmax	3560 ng/mL
O=c1[nH]c(=O)n([C@@H]2O[C@H](CO)[C@@H](O)[C@@H]2F)cc1CCC[18F]		nude mice, RG2 tumour, kidney	intravenous, dose not given, 2 h		biodistribution	0.32 ± 0.17 %ID/g
CSc1ccccc1C(=O)NCCn1cc(C(=O)NCc2cccc(C)n2)c(=O)c2cc3c(cc21)OC(F)(F)O3		Sprague-Dawley rat, male, plasma	intravenous, 5 mg/kg of parent compound		MRT(0-inf)	0.44 ± 0.02 h
C=CCN1CC(=O)N2[C@@H](Cc3ccc(O)cc3F)C(=O)N(Cc3cccc(N4CC(N5CCN(CC)CC5)C4)n3)C[C@@H]2N1C(=O)NCc1ccccc1	measured: Nausea	advanced solid tumour patients	all doses, dose-escalation part, grade ≥3		treatment-related adverse events	0%
NC1(C(=O)N[C@@H](CCO)c2ccc(Cl)cc2)CCN(c2nc[nH]c3nccc2-3)CC1		metastatic CRPC patients	480 mg b.i.d., any grade, treatment-related, with: enzalutamide 160 mg daily		incidence of Dysuria	0%
O=C(Nc1nc2cccc(-c3ccc(CN4CCS(=O)(=O)CC4)cc3)n2n1)C1CC1	measured: joint swelling	human rheumatoid arthritis patients	oral, 300 mg once daily, 4 weeks, regardless of relatedness		treatment-emergent adverse events	0%
CNCc1ccc(-c2[nH]c3cc(F)cc4c3c2CCNC4=O)cc1		patients	oral, 600 mg twice daily, grade 4		abdominal pain incidence	0%
CN1CCN(c2cccc3c2CCN(C(=O)/C=C/c2c(-n4cnnn4)ccc(Cl)c2F)[C@@H]3C(=O)Nc2ccc(C(=O)O)cc2)C(=O)C1		healthy human subjects	intravenous infusion, 9 mg/h, 5 days		discontinuations due to adverse events	0%
CCOC(=O)N1C[C@@H](c2cnn(C)c2)N[C@@H](c2ccc(C(=O)OC)cc2)C1	shake-flask, LC-HRMS	aqueous buffer	16 h, pH 6.8		solubility	> 750 µM
C[C@@H](N)C1CCN(S(=O)(=O)c2cccc3cnccc23)CC1	measured: Photophobia	healthy volunteers	150 mg, fed		TEAE incidence	0%
Cn1cnc2ccc(Nc3c(F)ccc(NS(=O)(=O)N4CC(F)C4)c3Cl)c(Cl)c2c1=O	measured: fatigue any grade	human patients	dose not given, monotherapy trial	baseline: patients	patients with fatigue	8%
O=C(O)CCCCCCCCC(=O)O		human, plasma	control		Cmin	15.3 ± 0.9 nM
O=c1[nH]c(=O)n([C@@H]2O[C@H](CO)[C@@H](O)[C@@H]2F)cc1CCCCC[18F]		nude mice, RG2 tumour, lung	intravenous, dose not given, 2 h		biodistribution	0.12 ± 0.03 %ID/g
C=CC(=O)N1CCC(Oc2cc3c(Nc4ccc(Cl)c(Cl)c4F)ncnc3cc2OC)CC1		Sprague-Dawley rat, male, plasma	oral, 2 mg/kg, 1 weeks pretreatment, with: Schisandrin A 20 mg/kg daily pretreatment		MRT(0-inf)	5.68 ± 0.96 h
CNC(=O)c1ccc(-c2cnc3ncc(Cc4ccc5ncccc5c4)n3n2)cc1F	CTCAE v4.0, any causality	human hepatocellular carcinoma patients	oral, 600 mg twice daily, expansion cohort at RP2D		decreased appetite incidence (all grades)	18%
O=C(N[C@H](Cc1c[nH]c2ccccc12)C(=O)Nc1ccncc1)c1ccc(-c2cc(C(F)(F)F)ccc2F)cc1F		Swiss Webster mouse, female, brain	oral, 50 mg/kg, 2 h, 20% HPβCD vehicle		concentration	100 nM
CCOC(=O)N1C[C@@H](c2ccc(Cl)cc2)N[C@@H](c2cc(Cl)cc(Cl)c2)C1	shake-flask, LC-HRMS	aqueous buffer	16 h, pH 6.8		solubility	< 4 µM

Some of these lines once more:
SMILES	test	test system	conditions	scale	measurement	value
O=c1[nH]c(=O)n([C@@H]2O[C@H](CO)[C@@H](O)[C@@H]2F)cc1CCCCC[18F]		nude mice, RG2 tumour, lung	intravenous, dose not given, 2 h		biodistribution	0.12 ± 0.03 %ID/g
O=C(COc1ccc(Cl)cc1)NC12CC(c3nnc([C@H]4C[C@@H](OC(F)(F)F)C4)o3)(C1)C2	measured: abnormal haematology test	healthy humans, both sexes	oral, 15 mg, single ascending dose	baseline: subjects	treatment-emergent adverse events	16.7%
O=c1[nH]c(=O)n([C@@H]2O[C@H](CO)[C@@H](O)[C@@H]2F)cc1CCC[18F]		nude mice, RG2 tumour, kidney	intravenous, dose not given, 2 h		biodistribution	0.32 ± 0.17 %ID/g
Cc1c(C(=O)O)ccc2c3n(nc12)[C@@H]1[C@H](C3)N(CC2CC2)[C@@]2(C(=O)Nc3cc(Cl)ccc32)[C@H]1c1cccc(Cl)c1F		female BALB/c nude mice, SJSA-1 xenograft, plasma	oral, 1 mg/kg twice daily		half-life	7.7 h and 14.2 h and 13.6 h and 5.1 h and 5.6 h
C=CCN1CC(=O)N2[C@@H](Cc3ccc(O)cc3F)C(=O)N(Cc3cccc(N4CC(N5CCN(CC)CC5)C4)n3)C[C@@H]2N1C(=O)NCc1ccccc1	measured: Nausea	advanced solid tumour patients	all doses, dose-escalation part, grade ≥3		treatment-related adverse events	0%
CN1CCN(c2cccc3c2CCN(C(=O)/C=C/c2c(-n4cnnn4)ccc(Cl)c2F)[C@@H]3C(=O)Nc2ccc(C(=O)O)cc2)C(=O)C1		healthy human subjects	intravenous infusion, 9 mg/h, 5 days		discontinuations due to adverse events	0%
